Results pooled from the literature.
Each numbered part is a random draw from the data of one study; scales do not carry over between parts. Values joined by “and” are separate records of one study, mostly repeats; a detail may differ.

Series 1
SMILES: CCOC(=O)/C=C/CNCCCCN1c2cc(Cl)ccc2CCc2cnn(C)c21.O=C(O)/C=C\C(=O)O
Cell line: NCI-H292
Technique: CellTiter-Glo
Time: 72 h
Reading: higher = more viable cells
Measurement: luminescence
0.05 µM: 4.13e+06 a.u. and 4.11e+06 a.u. and 4.08e+06 a.u.
0.005 µM: 4.19e+06 a.u. and 3.96e+06 a.u. and 4.14e+06 a.u.
50 µM: 53900 a.u. and 51700 a.u. and 57900 a.u.
0.5 µM: 3.89e+06 a.u. and 3.83e+06 a.u. and 3.92e+06 a.u.

Series 2
Compound: COc1cc(C(=O)OCCCN2CCCN(CCCOC(=O)c3cc(OC)c(OC)c(OCc4ccc([N+](=O)[O-])cc4)c3)CC2)cc(OC)c1OC
Measurement: paw withdrawal threshold
mice, STZ diabetic neuropathy; intrathecal, 10 nmol, 3 h, together with: DPCPX 10 nmol, 30 min before: 0.4 g and 0.65 g and 0.08 g and 0.02 g and 0.06 g and 0.59 g
mechanical pain, von Frey test; mouse, STZ diabetic neuropathy; intravenous, 30 mg/kg, 3 h post-dose, third injection: 0.36 g and 0.65 g and 0.98 g and 0.59 g
mechanical pain, von Frey test; mouse, STZ diabetic neuropathy; intravenous, 30 mg/kg, 5 h post-dose, third injection: 0.27 g and 0.4 g and 0.65 g and 0.44 g
von Frey test; mouse, CFA inflammatory pain; subcutaneous, 10 mg/kg, 3 h post-dose, second injection, day 3: 0.65 g and 0.4 g and 0.51 g and 0.29 g
von Frey test; mouse, CFA inflammatory pain; intravenous, dose not given, 24 h post-dose, first injection, day 1: 0.11 g and 0.29 g and 0.17 g and 0.23 g and 0.32 g and 0.19 g
mechanical pain, von Frey test; mouse, STZ diabetic neuropathy; intravenous, 30 mg/kg, 24 h post-dose, third injection: 0.4 g and 0.44 g and 0.36 g
von Frey test; mouse, CFA inflammatory pain; intraplantar, 10 µg, 3 h post-dose, day 3 after CFA: 0.98 g and 1.56 g and 1.3 g and 2.23 g and 1.16 g
von Frey test; mouse, CFA inflammatory pain; intraplantar, 10 µg, 24 h post-dose, day 3 after CFA: 0.44 g and 0.23 g and 0.32 g

Other studies, line by line
CDK12 with cyclin K: Cyclin-dependent kinase 12, with cyclin K (CDK12, Homo sapiens, UniProt Q9NYV4)
Chain of UniProt Q9NYV4 (whole entry, looked up): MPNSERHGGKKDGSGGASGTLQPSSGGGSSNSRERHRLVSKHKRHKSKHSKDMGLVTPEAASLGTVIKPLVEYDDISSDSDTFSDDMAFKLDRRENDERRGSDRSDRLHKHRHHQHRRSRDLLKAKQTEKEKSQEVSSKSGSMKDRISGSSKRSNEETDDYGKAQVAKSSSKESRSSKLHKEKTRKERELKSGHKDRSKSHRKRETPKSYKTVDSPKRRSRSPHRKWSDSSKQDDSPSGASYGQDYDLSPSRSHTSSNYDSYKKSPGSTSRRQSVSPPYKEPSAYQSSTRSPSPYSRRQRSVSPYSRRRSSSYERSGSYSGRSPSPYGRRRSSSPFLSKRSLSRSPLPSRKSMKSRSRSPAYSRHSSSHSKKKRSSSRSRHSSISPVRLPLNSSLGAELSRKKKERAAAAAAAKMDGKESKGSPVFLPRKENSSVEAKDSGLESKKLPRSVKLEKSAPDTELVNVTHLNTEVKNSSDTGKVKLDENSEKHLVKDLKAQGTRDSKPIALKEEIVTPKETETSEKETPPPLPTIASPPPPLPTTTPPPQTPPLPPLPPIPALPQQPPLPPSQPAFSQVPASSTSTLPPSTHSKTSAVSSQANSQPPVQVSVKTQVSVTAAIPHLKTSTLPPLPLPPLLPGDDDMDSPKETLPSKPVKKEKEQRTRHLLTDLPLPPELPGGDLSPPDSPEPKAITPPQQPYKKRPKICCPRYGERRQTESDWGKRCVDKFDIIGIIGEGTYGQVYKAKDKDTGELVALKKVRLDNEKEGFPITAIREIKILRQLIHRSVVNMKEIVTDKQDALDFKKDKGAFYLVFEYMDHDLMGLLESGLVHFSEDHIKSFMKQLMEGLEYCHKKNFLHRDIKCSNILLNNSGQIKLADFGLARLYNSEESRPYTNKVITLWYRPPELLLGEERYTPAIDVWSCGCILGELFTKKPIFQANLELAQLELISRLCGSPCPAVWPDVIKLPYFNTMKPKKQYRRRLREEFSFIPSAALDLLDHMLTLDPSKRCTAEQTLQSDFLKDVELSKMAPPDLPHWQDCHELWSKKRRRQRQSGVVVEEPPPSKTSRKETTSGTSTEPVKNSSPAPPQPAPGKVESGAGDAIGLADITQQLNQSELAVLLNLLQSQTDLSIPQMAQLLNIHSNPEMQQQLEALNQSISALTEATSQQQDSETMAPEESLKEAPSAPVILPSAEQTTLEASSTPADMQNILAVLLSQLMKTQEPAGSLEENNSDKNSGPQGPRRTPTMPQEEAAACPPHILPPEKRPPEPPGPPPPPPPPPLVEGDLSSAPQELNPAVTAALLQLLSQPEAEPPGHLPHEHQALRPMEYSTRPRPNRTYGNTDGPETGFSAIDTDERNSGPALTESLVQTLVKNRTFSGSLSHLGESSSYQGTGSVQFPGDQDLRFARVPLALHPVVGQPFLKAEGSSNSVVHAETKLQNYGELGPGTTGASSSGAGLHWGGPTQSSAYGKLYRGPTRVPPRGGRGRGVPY
CCn1cnc2c(NCc3nc4ccc(F)c(F)c4[nH]3)nc(N3CCn4ncnc4C3)nc21  degradation (MDA-MB-231; degrader, western blot, item: cyclin K; 50 nM, 24 h): 69.4%
Cn1cc(-c2cccc(CN3CCC4(CC3)COc3c4ccc4c3CN([C@H]3CCC(=O)NC3=O)C4=O)c2)cn1  terminal volume of distribution (cynomolgus monkeys; intravenous, 1.00 mg/kg): 13.8 L/kg
CC(=O)N1CCN(c2nc(NCc3nc4cc(Cl)c(Cl)cc4[nH]3)c3ncn(-c4cnn(C)c4)c3n2)CC1  inhibition (CDK12 with cyclin K; kinase activity, inhibitor, ADP-Glo; 0.0009 µM): -6.5%
CC(C)C[C@@H]1NC(=O)[C@@H](N(C)C(=O)[C@@H](NC(=O)[C@@H]2C[C@@H](F)CN2C(=O)C2(C(F)(F)F)CC(F)(F)C2)C2CC2)CCCCCCCN(C)C(=O)[C@H](Cc2cc(Cl)cnc2OC2CC2)N(C)C1=O  cleaved caspase-3 positive cells (immunohistochemistry; mice, sample A PDX, tumour; oral, 100 mg/kg three times daily for 4 d, 8 h after last dose): 2.24% and 2.15% and 2.84%
CCn1cnc2c(NCc3nc4cc(Cl)c(Cl)cc4[nH]3)nc(N3CCn4ncnc4C3)nc21  inhibition (CDK12 with cyclin K; kinase activity, inhibitor, ADP-Glo; 0.0009 µM): 15.7%
CCn1cnc2c(NCc3nc4cc(F)c(F)cc4[nH]3)nc(N3CCn4ncnc4C3)nc21  IC50 (CDK12 with cyclin K; inhibitor, ADP-Glo kinase): 230 nM

For quick reference, copied from above (series 2):
von Frey test; mouse, CFA inflammatory pain; intravenous, dose not given, 24 h post-dose, first injection, day 1: 0.11 g and 0.29 g and 0.17 g and 0.23 g and 0.32 g and 0.19 g
